Assay results of several laboratories.
Several values in a cell are separate wells, animals, samples, runs or records. ± gives the spread as reported.
murE: UDP-N-acetylmuramoyl-L-alanyl-D-glutamate--2,6-diaminopimelate ligase (murE, Mycobacterium tuberculosis, UniProt P9WJL3)
Chain of UniProt P9WJL3 (whole entry, looked up): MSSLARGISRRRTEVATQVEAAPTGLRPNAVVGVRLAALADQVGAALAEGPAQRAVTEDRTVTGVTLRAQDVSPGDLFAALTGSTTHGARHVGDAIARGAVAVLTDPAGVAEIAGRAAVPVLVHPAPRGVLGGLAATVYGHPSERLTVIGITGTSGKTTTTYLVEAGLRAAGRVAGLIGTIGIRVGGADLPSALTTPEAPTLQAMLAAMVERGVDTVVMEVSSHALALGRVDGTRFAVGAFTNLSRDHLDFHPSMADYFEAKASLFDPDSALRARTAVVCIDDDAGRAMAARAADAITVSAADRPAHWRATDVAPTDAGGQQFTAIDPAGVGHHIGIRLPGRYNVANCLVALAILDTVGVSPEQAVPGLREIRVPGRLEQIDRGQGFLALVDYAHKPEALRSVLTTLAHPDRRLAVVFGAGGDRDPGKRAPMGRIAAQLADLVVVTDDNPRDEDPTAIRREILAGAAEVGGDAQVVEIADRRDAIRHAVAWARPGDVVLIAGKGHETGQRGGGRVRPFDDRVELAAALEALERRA
Urease: Urease (Canavalia ensiformis, UniProt P07374)
Chain of UniProt P07374 (whole entry, looked up): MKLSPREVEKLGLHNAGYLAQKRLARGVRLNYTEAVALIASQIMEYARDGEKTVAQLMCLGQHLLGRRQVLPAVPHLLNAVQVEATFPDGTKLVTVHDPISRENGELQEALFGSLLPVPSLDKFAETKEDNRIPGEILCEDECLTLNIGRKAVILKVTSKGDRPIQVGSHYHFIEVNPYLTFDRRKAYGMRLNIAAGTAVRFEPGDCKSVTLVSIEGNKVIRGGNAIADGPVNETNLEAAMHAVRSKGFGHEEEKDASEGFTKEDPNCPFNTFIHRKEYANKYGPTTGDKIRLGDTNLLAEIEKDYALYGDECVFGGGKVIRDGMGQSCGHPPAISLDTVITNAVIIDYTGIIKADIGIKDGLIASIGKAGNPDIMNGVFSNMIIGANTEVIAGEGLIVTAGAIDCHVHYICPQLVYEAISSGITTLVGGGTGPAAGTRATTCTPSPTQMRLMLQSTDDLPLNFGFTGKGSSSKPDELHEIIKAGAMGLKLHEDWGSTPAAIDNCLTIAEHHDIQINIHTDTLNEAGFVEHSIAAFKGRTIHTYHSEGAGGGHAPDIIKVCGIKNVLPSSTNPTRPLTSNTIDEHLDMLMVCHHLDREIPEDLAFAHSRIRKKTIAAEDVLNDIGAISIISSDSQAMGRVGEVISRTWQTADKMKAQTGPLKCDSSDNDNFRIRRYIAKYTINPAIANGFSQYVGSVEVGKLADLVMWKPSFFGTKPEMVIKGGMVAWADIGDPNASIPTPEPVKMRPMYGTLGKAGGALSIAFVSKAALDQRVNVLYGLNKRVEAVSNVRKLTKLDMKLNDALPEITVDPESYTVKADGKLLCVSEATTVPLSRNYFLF
Genome polyprotein protease: Genome polyprotein, protease (Enterovirus A71, UniProt Q66478)
Chain of UniProt Q66478 (whole entry, looked up): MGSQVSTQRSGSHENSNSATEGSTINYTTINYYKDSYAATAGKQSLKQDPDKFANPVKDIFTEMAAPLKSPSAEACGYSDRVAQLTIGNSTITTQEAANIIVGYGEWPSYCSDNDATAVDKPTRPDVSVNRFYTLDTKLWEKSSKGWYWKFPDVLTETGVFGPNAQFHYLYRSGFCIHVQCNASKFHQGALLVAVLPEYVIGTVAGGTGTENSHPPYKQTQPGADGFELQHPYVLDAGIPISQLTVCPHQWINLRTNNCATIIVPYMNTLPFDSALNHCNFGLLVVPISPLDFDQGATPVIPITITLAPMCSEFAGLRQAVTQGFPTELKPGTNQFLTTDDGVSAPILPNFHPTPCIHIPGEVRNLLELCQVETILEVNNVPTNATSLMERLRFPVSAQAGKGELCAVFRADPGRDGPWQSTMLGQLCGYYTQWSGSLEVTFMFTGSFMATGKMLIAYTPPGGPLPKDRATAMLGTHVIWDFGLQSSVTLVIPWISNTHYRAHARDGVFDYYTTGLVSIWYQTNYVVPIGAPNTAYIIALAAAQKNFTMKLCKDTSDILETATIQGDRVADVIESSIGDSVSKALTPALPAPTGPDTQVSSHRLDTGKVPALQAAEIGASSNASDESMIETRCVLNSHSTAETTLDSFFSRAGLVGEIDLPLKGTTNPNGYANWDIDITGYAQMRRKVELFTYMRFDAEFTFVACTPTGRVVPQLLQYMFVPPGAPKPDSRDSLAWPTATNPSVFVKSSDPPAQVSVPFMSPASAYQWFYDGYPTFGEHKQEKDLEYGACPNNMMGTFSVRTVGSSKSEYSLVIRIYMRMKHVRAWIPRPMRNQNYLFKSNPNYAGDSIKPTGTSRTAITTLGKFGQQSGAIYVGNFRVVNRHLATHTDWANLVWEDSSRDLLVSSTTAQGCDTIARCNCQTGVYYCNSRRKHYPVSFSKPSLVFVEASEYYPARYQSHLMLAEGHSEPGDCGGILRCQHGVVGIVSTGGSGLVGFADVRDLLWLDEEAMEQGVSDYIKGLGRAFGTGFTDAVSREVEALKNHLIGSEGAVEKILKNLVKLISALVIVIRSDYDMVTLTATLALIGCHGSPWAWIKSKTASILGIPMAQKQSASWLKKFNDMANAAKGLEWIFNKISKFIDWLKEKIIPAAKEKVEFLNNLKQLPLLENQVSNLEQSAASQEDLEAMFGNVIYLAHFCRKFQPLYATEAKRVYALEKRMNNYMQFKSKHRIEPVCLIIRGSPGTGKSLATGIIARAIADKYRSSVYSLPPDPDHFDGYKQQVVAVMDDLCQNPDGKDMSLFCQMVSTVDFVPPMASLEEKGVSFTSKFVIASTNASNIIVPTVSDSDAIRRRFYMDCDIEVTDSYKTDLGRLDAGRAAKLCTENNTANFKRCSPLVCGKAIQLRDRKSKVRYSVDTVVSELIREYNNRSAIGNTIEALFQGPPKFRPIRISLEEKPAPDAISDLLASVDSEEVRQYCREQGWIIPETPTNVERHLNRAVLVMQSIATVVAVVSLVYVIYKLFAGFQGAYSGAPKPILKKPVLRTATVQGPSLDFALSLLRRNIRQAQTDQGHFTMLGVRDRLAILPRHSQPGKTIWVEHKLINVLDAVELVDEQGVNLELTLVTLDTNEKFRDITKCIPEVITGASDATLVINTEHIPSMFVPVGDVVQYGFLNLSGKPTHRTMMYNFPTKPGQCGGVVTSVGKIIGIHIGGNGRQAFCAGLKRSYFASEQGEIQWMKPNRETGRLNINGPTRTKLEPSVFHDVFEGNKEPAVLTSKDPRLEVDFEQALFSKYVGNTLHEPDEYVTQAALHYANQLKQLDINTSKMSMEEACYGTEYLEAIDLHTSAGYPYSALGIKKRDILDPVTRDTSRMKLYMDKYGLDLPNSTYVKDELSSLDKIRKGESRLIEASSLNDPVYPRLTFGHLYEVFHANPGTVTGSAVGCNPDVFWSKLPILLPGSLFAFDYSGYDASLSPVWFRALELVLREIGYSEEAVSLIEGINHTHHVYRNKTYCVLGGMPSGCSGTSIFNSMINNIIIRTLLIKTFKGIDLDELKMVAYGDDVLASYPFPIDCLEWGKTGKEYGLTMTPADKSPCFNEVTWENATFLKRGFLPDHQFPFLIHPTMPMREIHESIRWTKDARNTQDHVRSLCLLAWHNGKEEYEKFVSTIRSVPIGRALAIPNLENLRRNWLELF
CYP2B6: Cytochrome P450 2B6 (CYP2B6, Homo sapiens, UniProt P20813)
Chain of UniProt P22001 (whole entry, looked up): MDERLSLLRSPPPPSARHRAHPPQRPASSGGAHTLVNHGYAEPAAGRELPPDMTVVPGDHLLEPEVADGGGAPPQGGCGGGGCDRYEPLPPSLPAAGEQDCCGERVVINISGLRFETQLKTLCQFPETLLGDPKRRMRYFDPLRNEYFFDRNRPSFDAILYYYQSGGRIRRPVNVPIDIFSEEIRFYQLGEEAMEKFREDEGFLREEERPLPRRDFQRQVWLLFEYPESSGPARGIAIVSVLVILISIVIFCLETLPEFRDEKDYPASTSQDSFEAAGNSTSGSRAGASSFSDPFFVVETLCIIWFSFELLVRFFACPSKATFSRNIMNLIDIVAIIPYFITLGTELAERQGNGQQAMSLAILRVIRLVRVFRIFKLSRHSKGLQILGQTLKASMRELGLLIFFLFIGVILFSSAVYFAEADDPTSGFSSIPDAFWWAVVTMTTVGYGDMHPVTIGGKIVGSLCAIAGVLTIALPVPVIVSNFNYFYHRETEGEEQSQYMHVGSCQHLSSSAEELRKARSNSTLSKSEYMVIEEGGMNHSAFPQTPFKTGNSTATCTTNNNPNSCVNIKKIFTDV
Chain of UniProt P20813 (whole entry, looked up): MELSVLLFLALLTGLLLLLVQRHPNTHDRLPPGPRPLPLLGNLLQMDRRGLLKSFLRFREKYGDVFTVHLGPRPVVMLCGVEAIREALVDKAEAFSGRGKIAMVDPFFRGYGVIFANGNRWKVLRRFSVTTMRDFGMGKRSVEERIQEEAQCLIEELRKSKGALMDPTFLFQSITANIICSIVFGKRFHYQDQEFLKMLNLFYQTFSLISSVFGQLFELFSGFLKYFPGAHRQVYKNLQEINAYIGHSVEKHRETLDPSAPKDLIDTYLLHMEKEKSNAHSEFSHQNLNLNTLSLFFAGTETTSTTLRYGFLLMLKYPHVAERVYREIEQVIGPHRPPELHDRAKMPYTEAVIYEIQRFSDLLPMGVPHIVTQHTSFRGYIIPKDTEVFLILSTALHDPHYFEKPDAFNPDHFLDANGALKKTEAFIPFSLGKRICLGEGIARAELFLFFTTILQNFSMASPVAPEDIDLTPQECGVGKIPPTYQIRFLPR
Chain of UniProt P03468 (whole entry, looked up): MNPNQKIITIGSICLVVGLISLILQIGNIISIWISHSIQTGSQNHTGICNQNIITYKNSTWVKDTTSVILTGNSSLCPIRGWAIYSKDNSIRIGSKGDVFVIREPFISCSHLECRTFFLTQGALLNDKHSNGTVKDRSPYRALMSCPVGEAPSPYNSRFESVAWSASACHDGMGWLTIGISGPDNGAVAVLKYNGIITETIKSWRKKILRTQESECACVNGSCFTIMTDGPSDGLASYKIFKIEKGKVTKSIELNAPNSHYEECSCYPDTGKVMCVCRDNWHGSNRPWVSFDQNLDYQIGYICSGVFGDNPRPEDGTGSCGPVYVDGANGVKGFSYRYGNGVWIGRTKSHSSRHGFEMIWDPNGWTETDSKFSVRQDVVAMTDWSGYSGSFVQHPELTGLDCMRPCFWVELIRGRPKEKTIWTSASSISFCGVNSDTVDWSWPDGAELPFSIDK

With CCCCCc1cc(O)c2c(c1)OC(C)(C)c1cc(O)c(C)cc1-2 the IC50 was 90 µM (rat intestinal α-glucosidase; enzyme activity, inhibitor).
C=CC(=O)NC(CC(=C)C)C(=O)N1CC(C(=O)NC(Cc2ccccc2)C(=O)NC)C(c2cccc(C(F)(F)F)c2)C1 (stereo not drawn) gave an IC50 of 1.8 µM (Replicase polyprotein 1ab, main protease (rep, Human coronavirus 229E, UniProt P0C6X1); enzyme activity, inhibitor).
CCCCCCCCC/C=C\CCCc1cc(=O)c2ccccc2n1C has an IC50 of 159 µM (murE; enzyme activity, inhibitor, HPLC).
With O=C1C2=C(Nc3[nH]c(=O)[nH]c(=O)c3C23C(=O)Nc2ccc(Cl)cc23)c2ccccc21 (stereo not drawn) the IC50 was 5.56 µM (Urease; enzyme activity, inhibitor, absorbance).
The IC50 of CCCCCc1cc(O)c2c(c1)OC(C)(C)C1CCC(C)=CC21 (single isomer, unassigned; (-)) is reported as 0.47 ± 0.11 µM (UDP-glucuronosyltransferase 2B4 (UGT2B4, Homo sapiens, UniProt P06133); enzyme activity, inhibitor; recombinant UGT2B4 microsomes from HEK293; pH 7.4, glucuronidation, added: codeine).
For Cc1cc(Oc2nc(N3CC[C@@H](c4ccncc4)C3)ncc2F)[nH]n1, the IC50 was 0.001 µM (Amidophosphoribosyltransferase (purF, Mycobacterium tuberculosis, UniProt P9WHQ7); enzyme activity, inhibitor).
CCC[C@@H](C(=O)c1ccccc1)N1CCCC1 has an IC50 of 0.02 µM (Sodium-dependent dopamine transporter (SLC6A3, Homo sapiens, UniProt Q01959); transporter uptake, inhibitor, radiometric).
The IC50 of CCn1c(NCc2ccc(N3N=C(c4ccccc4)CC3c3ccccc3)cc2)nc2ccccc21 (stereo not drawn) is reported as 4.7 µM (Genome polyprotein protease; enzyme activity, inhibitor).
The IC50 of CCCCCCCC/C=C\CCCCc1cc(=O)c2ccccc2n1C is reported as 36 µM (murE; enzyme activity, inhibitor, absorbance).
CC1=CC(C=C(Cl)c2ccc(C(=O)O)cc2)C2(C(=O)O)C=CC(CCOC(=O)c3ccc(Oc4ccccc4)cc3)CC2C1 (stereo not drawn) has an IC50 of 6 µM (ATP-dependent Clp protease ATP-binding subunit ClpC1 (clpC1, Mycobacterium tuberculosis, UniProt P9WPC9); enzyme activity, inhibitor).
The IC50 of O=c1[nH]c2cc(Cl)cc(Cl)c2c(O)c1Sc1nnnn1-c1ccc(O)cc1 is reported as greater than 50 µM (Genome polyprotein protease; enzyme activity, inhibitor).
The IC50 of C=CC(=O)NC(CC(=C)C)C(=O)N1CC(C(=O)NC(CCSC)C(=O)NC)C(c2cccc(C(F)(F)F)c2)C1 (stereo not drawn) is reported as greater than 100 µM (Replicase polyprotein 1ab, main protease (rep, Human coronavirus NL63, UniProt P0C6X5); enzyme activity, inhibitor).
With CCCn1c(NCc2ccc(N3N=C(c4ccccc4)CC3c3ccccc3)cc2)nc2ccccc21 (stereo not drawn) the IC50 was 8.5 µM (Genome polyprotein protease; enzyme activity, inhibitor).
CCCCCc1cc(O)cc2c1Oc1cc(O)cc(C(=O)CCCC)c1C(=O)O2 gave an IC50 of 64.8 µM (Endonuclease 8 2 (nei2, Mycobacterium tuberculosis, UniProt P9WNC1); AP site cleavage, inhibitor; added: THF-containing DNA substrate).
O=C1C2=C(Nc3[nH]c(=O)[nH]c(=O)c3C23C(=O)Nc2ccccc23)c2ccccc21 (stereo not drawn) has an IC50 of 1.94 µM (Urease; enzyme activity, inhibitor, absorbance).
The IC50 of NC[C@@H](CC[C@H](N)C(=O)O)C[C@H]1O[C@@H](n2cnc3c(N)ncnc32)[C@H](O)[C@@H]1O is reported as 24 ± 3 µM (Replicase polyprotein 1ab, nsp10-nsp16 complex (rep, Human coronavirus 229E, UniProt P0C6X1)).
The IC50 of N=C(N)Nc1ccc2[nH]c3c(c2c1)C[C@@]1(O)[C@H]2Cc4ccc(O)c5c4[C@@]1(CCN2CC1CC1)[C@H]3O5 is reported as 1.83 µM (Carbamate kinase (Giardia intestinalis, UniProt A8BB85); enzyme activity, ATP luminescence).
CCCCCc1cc(O)c2c(c1)OC(C)(C)C1CCC(C)=CC21 (single isomer, unassigned; (-)) gave an IC50 of 18 ± 5 µM (CYP2B6; inhibitor; HEK cell microsomes; 30 min preincubation with NADPH).
With C=CCC(NC(=O)C1CN(C(=O)C(CC(=C)C)NC(=O)C=C)CC1c1cccc(C(F)(F)F)c1)C(=O)NC (stereo not drawn) the IC50 was greater than 100 µM (Replicase polyprotein 1ab, main protease (rep, Human coronavirus NL63, UniProt P0C6X5); enzyme activity, inhibitor).
CCCCCc1cc(O)c2c(c1)OC(C)(C)C1CCC(CO)=CC21 (stereo not drawn) has an IC50 of 0.55 ± 0.26 µM (CYP2B6; enzyme activity, inhibitor; microsomes from HEK293 cells; pH 7.4, unbound, fu,inc corrected, added: bupropion).
O=C1C[C@@H](c2ccc(O[C@@H]3O[C@H](CO)[C@@H](O)[C@H](O)[C@H]3O[C@@H]3OC[C@](O)(COC(=O)c4c[nH]c5ccccc45)[C@H]3O)cc2)Oc2cc(O)ccc21 has an IC50 of 0.34 µM (Neuraminidase (NA, Influenza A virus, UniProt P03468); enzyme activity, inhibitor).
The IC50 of COc1cc(CN2CCN(C)CC2)ccc1Nc1ncc2c(n1)N(C13CC4CC(CC(C4)C1)C3)C(=O)N(c1c(C)cccc1C)C2 is reported as greater than 0.5 µM (Serine/threonine-protein kinase SIK2 (SIK2, Homo sapiens, UniProt Q9H0K1); enzyme activity, inhibitor).
With C=CC(=O)NC(CC(=C)C)C(=O)N1CC(C(=O)NC(C(=O)NC)C(C)CC)C(c2cccc(C(F)(F)F)c2)C1 (stereo not drawn) the IC50 was greater than 100 µM (Replicase polyprotein 1ab, main protease (rep, Human coronavirus 229E, UniProt P0C6X1); enzyme activity, inhibitor).
With O=C1C=CC(=O)c2cn(Cc3ccccc3)cc21 the IC50 was greater than 50 µM (Genome polyprotein protease; enzyme activity, inhibitor).
Cc1ccccc1N1C(=O)/C(=C/c2ccc(OCc3cccc(C(=O)O)c3)cc2)C(=O)NC1=S has an IC50 of 23.2 µM (Tyrosine-protein phosphatase non-receptor type 6 (PTPN6, Homo sapiens, UniProt P29350); enzyme activity, inhibitor).
For CC(C)C[C@H](N)C(=O)NCC(=O)N[C@H](C(=O)N[C@@H](C)C(=O)N1CCC[C@H]1C(=O)N[C@H](C(=O)N[C@@H](CCCCN)C(=O)N[C@@H](C)C(=O)N[C@@H](CCCCN)C(=O)N[C@@H](CCCNC(=N)N)C(=O)N[C@@H](CCCNC(=N)N)C(=O)N[C@H](C(=O)N[C@H](C(=O)N[C@@H](CCC(N)=O)C(=O)N[C@@H](CCCNC(=N)N)C(=O)N[C@@H](CCC(=O)O)C(=O)N[C@@H](CCCCN)C(=O)N[C@@H](CCCNC(=N)N)C(N)=O)C(C)C)C(C)C)[C@@H](C)O)C(C)C, the IC50 was greater than 100 µM (Furin (FURIN, Homo sapiens, UniProt P09958); enzyme activity, inhibitor, HPLC; pH 7).
With C=CC(=O)NC(CC(=C)C)C(=O)N1CC(C(=O)NC(Cc2ccco2)C(=O)NC)C(c2cccc(C(F)(F)F)c2)C1 (stereo not drawn) the IC50 was greater than 100 µM (Replicase polyprotein 1ab, main protease (rep, Human coronavirus NL63, UniProt P0C6X5); enzyme activity, inhibitor).
C=C(C)C1C2OC(=O)C1C1(O)CC3OC34C(=O)OC2C14C (stereo not drawn) has an IC50 of 3.55 µM (GABA-A receptor; alpha-1/beta-2/gamma-2 (Homo sapiens, UniProt P14867+P18507+P47870, V284A); ion current, antagonist, two-electrode voltage clamp; oocytes).
C=CC(=O)N1CCN(c2cc(-c3ccc(C4CCC4)cc3)ncc2C(=O)N[C@H](Cc2ccccc2)C(=O)NC)C(C)C1 (stereo partly drawn) gave an IC50 of greater than 100 µM (Replicase polyprotein 1ab, main protease (rep, Human coronavirus 229E, UniProt P0C6X1); enzyme activity, inhibitor).
CSCC[C@@H]1NC(=O)[C@H](CCC(=O)O)NC(=O)[C@H](CC(C)C)NC(=O)[C@H](CC(C)C)NC(=O)[C@H](CCCCN)NC(=O)[C@H](CC(=O)O)NC(=O)[C@H](CC(=O)O)NC(=O)[C@H](CC(N)=O)NC(=O)[C@H](CC(=O)O)NC(=O)[C@@H]2CSSC[C@@H]3NC(=O)[C@H]([C@@H](C)O)NC(=O)[C@H](C(C)C)NC(=O)[C@@H]4CCCN4C(=O)[C@H](CSSC[C@H](NC(=O)[C@H](CC(=O)O)NC(=O)[C@H](Cc4ccccc4)NC(=O)[C@H](CC(N)=O)NC(=O)[C@H](CCCCN)NC(=O)[C@H](CCC(=O)O)NC(=O)[C@H](CC(=O)O)NC(=O)[C@H](C)NC(=O)[C@@H](NC(=O)[C@H](Cc4c[nH]cn4)NC(=O)[C@@H](N)CCC(=O)O)CSSC[C@@H](C(N)=O)NC(=O)[C@H](Cc4ccccc4)NC(=O)CNC3=O)C(=O)N[C@@H](CCCNC(=N)N)C(=O)N[C@@H](CCCNC(=N)N)C(=O)N[C@@H](CO)C(=O)N[C@@H](CC(C)C)C(=O)N[C@@H](CCCNC(=N)N)C(=O)N[C@@H](CC(N)=O)C(=O)NCC(=O)N[C@@H](CC(=O)O)C(=O)N2)NC(=O)[C@H](Cc2ccc(O)cc2)NC(=O)[C@H](Cc2ccc(O)cc2)NC(=O)CNC1=O gave an IC50 of 0.829 µM and 0.83 µM (Potassium voltage-gated channel subfamily A member 3 (KCNA3, Homo sapiens, UniProt P22001); ion current, inhibitor, two-electrode voltage clamp; pH 7.45, oocytes).

For quick reference, copied from above:
The IC50 of O=c1[nH]c2cc(Cl)cc(Cl)c2c(O)c1Sc1nnnn1-c1ccc(O)cc1 is reported as greater than 50 µM (Genome polyprotein protease; enzyme activity, inhibitor).
The IC50 of NC[C@@H](CC[C@H](N)C(=O)O)C[C@H]1O[C@@H](n2cnc3c(N)ncnc32)[C@H](O)[C@@H]1O is reported as 24 ± 3 µM (Replicase polyprotein 1ab, nsp10-nsp16 complex (rep, Human coronavirus 229E, UniProt P0C6X1)).
With O=C1C2=C(Nc3[nH]c(=O)[nH]c(=O)c3C23C(=O)Nc2ccc(Cl)cc23)c2ccccc21 (stereo not drawn) the IC50 was 5.56 µM (Urease; enzyme activity, inhibitor, absorbance).
